# Measured values pooled from the literature.
# Parts stem from different laboratories: compare values within a part only.

# Block 1 — method: protein-binding microarray; form: double-stranded DNA, one strand shown; matrix: in vitro; tested at: 2540 nM top; notes: 60-bp whole probe; with: salmon DNA 0.4 mg/ml; baseline: random background probes; direction: higher = stronger binding; shared flanks, not repeated: GCCTAGCAC … GTCTTGATTCGCTTGACGCTGCTG
# Target: Interferon regulatory factor 3, full length, phosphomimetic (IRF3, Homo sapiens, UniProt Q14653, residues 1-427, S386D/S396D/S398D/S402D/T404D/S405D)
# UniProt Q14653, sequence (whole entry, unmodified, looked up): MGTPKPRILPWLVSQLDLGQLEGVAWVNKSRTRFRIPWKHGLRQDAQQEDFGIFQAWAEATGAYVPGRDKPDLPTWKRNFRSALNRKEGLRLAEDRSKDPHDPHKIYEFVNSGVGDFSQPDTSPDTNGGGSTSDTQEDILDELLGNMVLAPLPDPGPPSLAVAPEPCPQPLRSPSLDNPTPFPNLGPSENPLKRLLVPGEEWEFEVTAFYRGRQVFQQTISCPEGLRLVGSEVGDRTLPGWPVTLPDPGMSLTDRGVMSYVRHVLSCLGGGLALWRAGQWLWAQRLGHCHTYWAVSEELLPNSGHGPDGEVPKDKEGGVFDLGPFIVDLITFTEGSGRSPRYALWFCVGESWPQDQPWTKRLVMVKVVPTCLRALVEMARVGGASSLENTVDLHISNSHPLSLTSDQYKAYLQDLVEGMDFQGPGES
Sequence,fitted relative affinity [z-score]
GAAGATTTCGGGTATCGAGACGTGCTA,1.19
TAAGGTATCGGGACTGGGTTAGTGCTA,0.905
TTAGGACTGGGGATCGGTTAGTGCTAG,-0.604
AAACTAGTGTTTTTCTCCTAGTGCTAG,0.616
GACGATATAGGGTTTCGAGACGTGCTA,0.667
TTAGGTATCGGTATCGTTTAGTGCTAG,4.94
TCAGTTTTCAGTCCTGGACTGTGCTAG,2.3
TCATCTAAGGATTTCAGACTGTGCTAG,0.361
GATGGTCTCGGTATCGGGACGTGCTAG,1.53
GACGGGCTGCTTTTCCTGACGTGCTAG,-0.402
GACGGACTGGACTTTGGGGACGTGCTA,-0.897
TCAATTTTCAGTATTACACTGTGCTAG,1.89
GTCGGTATCCTTTTCCTGACGTGCTAG,8.42
GCACTCTTCTTTTTTTTCTTGTGCTAG,1.85
TTTGGACTGGACTATCGGTTAGTGCTA,-0.408
TCATCTATGTAGTTGATACTGTGCTAG,0.418
GACGGTTTCGGGTAGCGGGACGTGCTA,3.58

# Block 2 — method: RNA Bind-n-Seq; form: RNA; matrix: in vitro; tested at: 200 nM; notes: whole 134-nt RNA, ends assumed; with: 150 mM KCl; baseline: input library; direction: higher = stronger binding
# Target: Ras GTPase-activating protein-binding protein 1, full length (G3BP1, Homo sapiens, UniProt Q13283)
# UniProt Q13283, sequence (whole entry, looked up): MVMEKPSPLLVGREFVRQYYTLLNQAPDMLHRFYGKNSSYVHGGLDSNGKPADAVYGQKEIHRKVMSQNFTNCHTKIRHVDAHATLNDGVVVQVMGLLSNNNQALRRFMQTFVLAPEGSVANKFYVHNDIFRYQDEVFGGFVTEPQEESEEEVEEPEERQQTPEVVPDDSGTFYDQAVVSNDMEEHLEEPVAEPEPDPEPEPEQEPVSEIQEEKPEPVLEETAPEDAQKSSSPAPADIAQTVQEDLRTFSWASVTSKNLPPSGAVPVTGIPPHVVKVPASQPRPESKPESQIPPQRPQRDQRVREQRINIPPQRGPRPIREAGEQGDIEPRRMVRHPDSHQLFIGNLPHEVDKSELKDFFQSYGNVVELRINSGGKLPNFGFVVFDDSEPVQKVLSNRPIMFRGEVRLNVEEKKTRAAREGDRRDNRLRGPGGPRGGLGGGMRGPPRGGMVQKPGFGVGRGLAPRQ
# Shared flanks, not repeated: GGGAGUUCUACAGUCCGACGAUC … UGGAAUUCUCGGGUGUCAAGG
Sequence,log2 enrichment
UGCUGGAGUGGCAGAAGACUUUUGAGGAGAAGCUCACGCCGUUGCUGAGUGUGCGGGAGUCACUCUCAGAGGAAGAGGCCCAGAAGAUGG,-1.29
CUCAAGUCCUGUGCUACACAUCGUAUGUACCGAAUCGGGCCGGGCCGGGGCCGGAAAGUAUUAUGUUACGCCGUUCGGAUCUGCACUUCC,-0.303
GUCCUGUGCUACACAUCGUAUGUACCGAAUCGGGUGGGAAAAAAAGGGAAAAAAAGGGAAAGUAUUAUGUUACGCCGUUCGGAUCUGCAC,-0.192
GCAGGAAGUAAAAACAAAUGGAAAUGCUUCGGAUAGUGGCAGGGGUGGGAGUUGCUAAGGAAAGGGUGGGAUGGGAGUGGGUAAAGAGUU,0.95
ACCAUGCAGGUGGGCAUCUUUGGGAAGUGGGGCAAGGGGGGGAUAGGGAGGGGGGUAACACUUUGCGAACAGGUGGUCCCAGGUCGUUUC,1.44
GUCCUGUGCUACACAUCGUAUGUACCGAAUCGGGAAAAAAGGAAAAAAGGGAAAAAAGGAAAGUAUUAUGUUACGCCGUUCGGAUCUGCA,-0.674
UCCUGUGCUACACAUCGUAUGUACCGAAUCGGCCCCCCGGGCCCCCCGGGCCCCCCGGGGAAAGUAUUAUGUUACGCCGUUCGGAUCUGC,-0.631
AAGUCCUGUGCUACACAUCGUAUGUACCGAAUCGGAAAAAGGAAAAAGGUUUUUGGAAAGUAUUAUGUUACGCCGUUCGGAUCUGCACUU,-1.6
UCAAGUCCUGUGCUACACAUCGUAUGUACCGAAUCGGGGAAGGAAGGGAAGGGGAAAGUAUUAUGUUACGCCGUUCGGAUCUGCACUUCC,0.41

# Block 3 — method: RNA Bind-n-Seq; form: RNA; matrix: in vitro; tested at: 365 nM; baseline: no-protein control; direction: higher = stronger binding
# Target: RNA binding protein fox-1 homolog 2, RRM domain, GST-SBP tag (RBFOX2, Homo sapiens, UniProt O43251-10, residues 100-194)
# Notes: natural RNA segment, single round, ends assumed
# Shared flanks, not repeated: GGGAGUUCUACAGUCCGACGAUC … UGGAAUUCUCGGGUGCCAA
Sequence,RBNS enrichment (R)
GCCUUCCCUACCGGCCAUUUCCUUUAGCUCCCUCAAGGCUCUUGGGGAGUUUGCUUGGGGCUCUAAGUCUGGGGUAGGUUCUGGGCCUUCACAGAAUGAUGGCAUCUUCC,0.487
CUGGGACGGCAGGAAGGUGGGAUGGGCGGGAGACGUUGGCACUCACCUGGUCGGUGCACCAGUACCAGGUGGCCAUGAUGGUCAGGCCAAAGGUCAUCCCGGUCCACGGC,0.453
CACAUUUACAUUUCUAAGUAGUUGUAUAGUAGAAGCAGGAAGCUCUUAUUGCUUAUUUGGUCGUAAUGAAAAUAAUUUGUAAAAUGUCCUUUAAAAGUUUAAUGAUACUU,1.01
ACGGAUGCCUGCCACCGCCGGGGCAGGGCCAGAUGCCGAUGCUGGGUGUCCAGACUCAGAAGGCUUGAUCUGGGUUCCCUGUAAAGAGAGAGUGAAUUUCAGUAUACAGA,0.686
GUAGACUCACAAGUUUAACUGUUGUAUUAUAACAGUAUUACAUGUCAACAGUGUGGUUAUGACCUUUAUUUAUAUAAAAACCAAAUAUUUAGUCAAUUUACCGUGUCUUA,0.634
UUAAGAAUGUUCACUUAUAGGACCAAAAUAUAAAUAAAAACUUUCAAAUAUGUUUGAUUUUAAAUUAGUCUGCUUUGUCCUUUCGUGUUUCUUGAUAUGUUCUUCAUUUU,5.13
UGUCACUCCCAGACCACCUCCCUGCCCUGUCCUCCAGCUUCCCCUCGCUGUCCUGCUGUGUGAAUUCCCAGGUUGGCCUGGUGGCCAUGUCGCCUGCCCCCAGCACUCCU,0.797
GAGUAAUGCUGGCUCUGAACAAACUUUUGAAAACUUAGUUGACAGUGUUUUGAGUCAACUGAAAAAAAGCAUGACUUUUGGAAUCUCUGAAUGCCUUGGUUCUCAGUAUU,17.4

# Block 4 — method: universal PBM; form: double-stranded DNA, one strand shown; matrix: in vitro; tested at: 600 nM; direction: higher = stronger binding
# Target: Sal-like protein 4, full length isoform A (SALL4, Homo sapiens, UniProt Q9UJQ4, residues 1-1053)
# UniProt Q9UJQ4, sequence (whole entry, looked up): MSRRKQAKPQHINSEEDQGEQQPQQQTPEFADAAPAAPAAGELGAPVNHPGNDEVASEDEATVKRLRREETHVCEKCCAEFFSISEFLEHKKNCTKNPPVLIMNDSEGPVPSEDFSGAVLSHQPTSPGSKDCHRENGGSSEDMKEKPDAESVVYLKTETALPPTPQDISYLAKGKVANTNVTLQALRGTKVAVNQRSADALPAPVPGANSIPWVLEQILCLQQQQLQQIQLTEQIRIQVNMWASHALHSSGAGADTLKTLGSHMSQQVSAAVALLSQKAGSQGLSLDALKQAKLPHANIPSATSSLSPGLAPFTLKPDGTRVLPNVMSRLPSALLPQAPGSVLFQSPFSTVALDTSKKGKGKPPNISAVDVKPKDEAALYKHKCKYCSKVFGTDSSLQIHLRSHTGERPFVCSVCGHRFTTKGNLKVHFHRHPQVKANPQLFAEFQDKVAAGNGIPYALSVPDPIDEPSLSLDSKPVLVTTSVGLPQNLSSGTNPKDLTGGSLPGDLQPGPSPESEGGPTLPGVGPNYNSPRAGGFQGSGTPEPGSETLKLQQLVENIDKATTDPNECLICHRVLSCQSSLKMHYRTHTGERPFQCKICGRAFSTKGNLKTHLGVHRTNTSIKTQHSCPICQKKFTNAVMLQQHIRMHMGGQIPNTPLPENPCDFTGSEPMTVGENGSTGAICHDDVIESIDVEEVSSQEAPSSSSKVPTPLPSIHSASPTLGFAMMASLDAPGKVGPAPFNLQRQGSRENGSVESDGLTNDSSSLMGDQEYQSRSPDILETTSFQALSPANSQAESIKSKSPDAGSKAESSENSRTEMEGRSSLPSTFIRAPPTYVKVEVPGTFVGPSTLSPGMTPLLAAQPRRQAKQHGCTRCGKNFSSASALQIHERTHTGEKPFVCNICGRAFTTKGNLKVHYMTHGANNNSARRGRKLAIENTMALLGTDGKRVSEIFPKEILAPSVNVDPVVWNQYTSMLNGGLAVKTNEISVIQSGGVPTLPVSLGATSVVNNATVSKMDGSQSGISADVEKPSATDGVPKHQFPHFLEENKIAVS
# Notes: 8-mer, flanks averaged, mean of replicates
Sequence,E-score
CTCCCGCC,-0.249
AGGCGGTG,-0.295
TCACGTAA,0.168
AGGCCAGA,-0.139
ATCTCGGG,-0.256
AAGCCAAG,-0.192
AGGGGCAC,-0.312
GGAACGAC,-0.139
CCTAATGA,0.0843
CTATCATA,0.275
AAATTAGC,0.0825
CCAAATTA,0.269
ATCTTCCG,-0.0319
TAAGGGGA,-0.0532
AACGAAGA,0.121
CTTCTATC,0.00749
CTGTACCA,-0.124
GAATGCGC,-0.119
GCGGATTA,-0.0449
AACCCCAT,-0.0364
GTCGATCA,-0.0298
CGCAGAAC,-0.0731
AAATGGTG,0.167
AGGCCCAA,-0.135
TTGAGCAA,0.0927

# For quick reference, copied from above (block 1):
Sequence,fitted relative affinity [z-score]
TCAATTTTCAGTATTACACTGTGCTAG,1.89
GTCGGTATCCTTTTCCTGACGTGCTAG,8.42
GCACTCTTCTTTTTTTTCTTGTGCTAG,1.85
TTTGGACTGGACTATCGGTTAGTGCTA,-0.408
